Published values gathered from unrelated publications.
Each line is one published result; not all experiments were run side by side. Values joined by “and” are separate records of one study, mostly repeats; a detail may differ. Numbers after ± are the reported error.
KCNH2: Voltage-gated inwardly rectifying potassium channel KCNH2 (KCNH2, Homo sapiens, UniProt Q12809)
Chain of UniProt Q12809 (whole entry, looked up): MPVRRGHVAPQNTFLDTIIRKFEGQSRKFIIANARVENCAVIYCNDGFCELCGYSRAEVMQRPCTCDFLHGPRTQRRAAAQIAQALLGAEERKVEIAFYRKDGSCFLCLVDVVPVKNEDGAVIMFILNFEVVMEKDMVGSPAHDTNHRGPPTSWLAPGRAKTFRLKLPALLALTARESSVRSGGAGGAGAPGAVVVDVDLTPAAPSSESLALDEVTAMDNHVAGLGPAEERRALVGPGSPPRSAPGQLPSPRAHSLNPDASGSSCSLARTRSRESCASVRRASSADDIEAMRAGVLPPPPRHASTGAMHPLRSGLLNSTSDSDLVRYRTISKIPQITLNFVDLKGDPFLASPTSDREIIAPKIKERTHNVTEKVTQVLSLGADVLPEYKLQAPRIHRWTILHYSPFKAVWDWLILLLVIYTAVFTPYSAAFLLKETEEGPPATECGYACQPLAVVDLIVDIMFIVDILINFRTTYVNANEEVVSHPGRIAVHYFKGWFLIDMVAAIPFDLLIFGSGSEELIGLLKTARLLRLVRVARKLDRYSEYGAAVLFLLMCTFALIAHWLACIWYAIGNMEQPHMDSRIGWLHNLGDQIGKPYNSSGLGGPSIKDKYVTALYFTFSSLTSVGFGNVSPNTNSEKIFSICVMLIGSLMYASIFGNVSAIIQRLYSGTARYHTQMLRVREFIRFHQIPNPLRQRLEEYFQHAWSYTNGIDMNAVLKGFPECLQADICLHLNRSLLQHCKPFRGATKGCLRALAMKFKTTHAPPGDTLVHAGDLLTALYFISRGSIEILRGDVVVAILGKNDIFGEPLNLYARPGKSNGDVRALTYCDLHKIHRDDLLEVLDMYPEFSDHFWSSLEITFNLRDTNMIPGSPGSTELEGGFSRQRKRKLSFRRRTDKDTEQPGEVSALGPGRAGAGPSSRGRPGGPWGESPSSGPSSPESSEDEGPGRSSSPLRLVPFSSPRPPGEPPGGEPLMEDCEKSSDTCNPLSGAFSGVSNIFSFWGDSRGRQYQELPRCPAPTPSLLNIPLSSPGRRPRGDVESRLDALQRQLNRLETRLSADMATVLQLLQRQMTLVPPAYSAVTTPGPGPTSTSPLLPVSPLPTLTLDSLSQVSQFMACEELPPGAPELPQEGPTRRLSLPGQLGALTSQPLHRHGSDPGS
ABCC3: ATP-binding cassette sub-family C member 3 (ABCC3, Homo sapiens, UniProt O15438)
Chain of UniProt O15438 (whole entry, looked up): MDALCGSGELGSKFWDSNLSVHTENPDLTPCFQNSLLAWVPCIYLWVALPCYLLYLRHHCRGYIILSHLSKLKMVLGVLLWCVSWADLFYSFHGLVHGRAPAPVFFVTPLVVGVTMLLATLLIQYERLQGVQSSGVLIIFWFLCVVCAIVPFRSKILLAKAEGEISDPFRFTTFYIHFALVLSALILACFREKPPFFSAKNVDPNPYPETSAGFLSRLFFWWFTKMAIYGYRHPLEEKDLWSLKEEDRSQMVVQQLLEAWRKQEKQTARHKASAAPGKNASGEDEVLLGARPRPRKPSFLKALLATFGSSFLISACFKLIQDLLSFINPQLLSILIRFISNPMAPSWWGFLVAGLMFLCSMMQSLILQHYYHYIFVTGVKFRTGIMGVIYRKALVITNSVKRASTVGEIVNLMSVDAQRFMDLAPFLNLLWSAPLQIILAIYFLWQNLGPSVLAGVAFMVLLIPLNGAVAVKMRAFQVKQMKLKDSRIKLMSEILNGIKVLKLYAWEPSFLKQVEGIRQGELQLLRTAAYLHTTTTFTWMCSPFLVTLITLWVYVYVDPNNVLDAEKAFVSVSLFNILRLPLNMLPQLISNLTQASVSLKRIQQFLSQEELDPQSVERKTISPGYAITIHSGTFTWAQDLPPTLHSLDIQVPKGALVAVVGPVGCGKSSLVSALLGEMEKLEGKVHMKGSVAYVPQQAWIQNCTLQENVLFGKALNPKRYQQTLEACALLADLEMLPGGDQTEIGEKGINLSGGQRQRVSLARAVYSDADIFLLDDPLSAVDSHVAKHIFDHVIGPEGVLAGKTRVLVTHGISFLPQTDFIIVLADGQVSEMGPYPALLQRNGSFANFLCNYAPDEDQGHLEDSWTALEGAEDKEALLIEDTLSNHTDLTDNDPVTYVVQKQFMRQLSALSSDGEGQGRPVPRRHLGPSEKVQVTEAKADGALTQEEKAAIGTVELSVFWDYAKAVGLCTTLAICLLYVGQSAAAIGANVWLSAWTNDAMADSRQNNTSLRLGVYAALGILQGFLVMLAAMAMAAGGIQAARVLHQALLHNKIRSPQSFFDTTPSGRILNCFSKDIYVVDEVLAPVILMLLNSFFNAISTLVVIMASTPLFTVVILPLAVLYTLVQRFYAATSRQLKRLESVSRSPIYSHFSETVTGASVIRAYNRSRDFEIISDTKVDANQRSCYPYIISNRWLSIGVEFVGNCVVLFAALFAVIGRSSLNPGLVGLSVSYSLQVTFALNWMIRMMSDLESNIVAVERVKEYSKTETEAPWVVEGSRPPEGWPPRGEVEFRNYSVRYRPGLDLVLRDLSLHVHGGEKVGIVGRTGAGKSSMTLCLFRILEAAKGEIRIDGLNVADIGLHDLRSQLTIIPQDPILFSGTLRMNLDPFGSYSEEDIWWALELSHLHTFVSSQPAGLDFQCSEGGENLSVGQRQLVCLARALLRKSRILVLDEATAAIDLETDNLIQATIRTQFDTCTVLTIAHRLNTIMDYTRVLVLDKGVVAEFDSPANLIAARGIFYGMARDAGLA
PPARG: Peroxisome proliferator-activated receptor gamma (PPARG, Homo sapiens, UniProt P37231)
Chain of UniProt P05177 (whole entry, looked up): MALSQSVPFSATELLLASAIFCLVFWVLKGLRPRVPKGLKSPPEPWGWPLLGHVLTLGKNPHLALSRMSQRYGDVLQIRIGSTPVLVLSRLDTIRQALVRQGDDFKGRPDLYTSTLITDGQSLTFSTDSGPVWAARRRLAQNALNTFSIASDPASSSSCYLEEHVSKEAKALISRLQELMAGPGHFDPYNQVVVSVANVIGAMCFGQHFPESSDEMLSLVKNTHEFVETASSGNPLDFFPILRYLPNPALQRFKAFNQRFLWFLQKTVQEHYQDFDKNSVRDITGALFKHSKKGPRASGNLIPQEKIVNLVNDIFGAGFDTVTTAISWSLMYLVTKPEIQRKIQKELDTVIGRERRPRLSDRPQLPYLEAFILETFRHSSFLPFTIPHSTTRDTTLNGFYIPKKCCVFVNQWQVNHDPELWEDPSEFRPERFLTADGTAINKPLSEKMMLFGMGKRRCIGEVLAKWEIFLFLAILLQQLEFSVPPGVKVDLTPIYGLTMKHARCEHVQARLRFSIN
Chain of UniProt P37231 (whole entry, looked up): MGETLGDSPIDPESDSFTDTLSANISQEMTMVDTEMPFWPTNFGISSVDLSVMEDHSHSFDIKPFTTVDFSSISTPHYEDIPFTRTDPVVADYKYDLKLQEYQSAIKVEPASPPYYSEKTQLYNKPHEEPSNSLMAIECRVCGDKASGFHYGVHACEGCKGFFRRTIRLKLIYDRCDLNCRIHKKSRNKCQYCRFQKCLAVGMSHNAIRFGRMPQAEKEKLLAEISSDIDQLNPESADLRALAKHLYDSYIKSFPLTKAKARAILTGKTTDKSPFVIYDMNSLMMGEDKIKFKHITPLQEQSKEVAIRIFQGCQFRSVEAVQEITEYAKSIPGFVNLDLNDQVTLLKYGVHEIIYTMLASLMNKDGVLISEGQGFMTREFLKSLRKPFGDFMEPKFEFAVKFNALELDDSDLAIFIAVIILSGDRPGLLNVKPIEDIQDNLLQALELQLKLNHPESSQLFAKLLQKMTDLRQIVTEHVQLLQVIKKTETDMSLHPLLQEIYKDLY

For `C=CC(=O)Nc1cccc(Cn2ncc3cnc(Nc4cnn(CCOC)c4)nc32)c1`, “percent of control” read 100% (CSNK1D human; binding, KINOMEscan; 100 nM; lower = stronger binding).
With `O=C1NC2(CC2)COc2ncc(F)cc2[C@H]2COCCN2c2ccn3ncc1c3n2` the inhibition was 18.8 ± 1.25% (KCNH2; potassium current, whole-cell patch clamp; CHO cells expressing hERG; 4.44 µM).
`COC1CN([C@H]2CC[C@H]([C@@]3(C)Oc4c(Cl)cc(C(=O)NCc5c(SC)cc(C)[nH]c5=O)c(C)c4O3)CC2)C1`: “log2 fold change” 4.32 (RNA-seq, item: TSKU; human, whole blood; dose not given, 24 h; baseline: pretreatment baseline).
`CNC(=O)C1CCCN(C(=O)C2CC3CCC2N3C(=O)[C@@H]2C[C@@H](O)CN2C(=O)NCc2cccc(Cl)c2F)C1` (mixture of isomers) gave a remaining activity of 108% and 106% and 105% (Cytochrome P450 1A2 (CYP1A2, Homo sapiens, UniProt P05177); preincubation with NADPH; human; 50 µM; baseline: negative control).
With `O=C(c1ccc(OCCN2CCCCC2)cc1)c1c(-c2ccc(O[C@@H]3O[C@H](C(=O)O)[C@@H](O)[C@H](O)[C@H]3O)cc2)sc2cc(O)ccc12` the inhibition was > 75% (ABCC3; transporter uptake, inhibitor; Sf9; 10 µM, pH 7, cell membranes).
With `CC(C)Cn1cc(Cc2cccc(OC(C)(C)C(=O)O)c2)c2ccc(C(=O)N[C@@H](C)c3cc(F)cc(C(C)(C)C)c3)cc21` the IC50 was 8 nM (PPARG; ligand displacement, TR-FRET).
For `CC1(C(=O)OC2OC(C(=O)O)C(O)C(O)C2O)CCC2(C)CCC3(C)C(=CC(=O)C4C5(C)CCC(O)C(C)(C)C5CCC43C)C2C1` (centres unmarked), “net transport ratio” read 3.7 ± 0.1 (ABCC3; substrate, vesicular transport, item: MRP3; inside-out membrane vesicles; 100 µM, 1 h; baseline: with over without vanadate).
For `FC(F)(F)c1cc2nc(c1)CNCc1cc(C(F)(F)F)cc(n1)CNC2.[Cu+2]`, “cathodic peak potential” read -858 mV (Cu(II)/Cu(I) redox couple; cyclic voltammetry; DMF; added: TBAP; baseline: Fc/Fc+).
`O=C(c1ccc(OCCN2CCCCC2)cc1)c1c(-c2ccc(O)cc2)sc2cc(O[C@@H]3O[C@H](C(=O)O)[C@@H](O)[C@H](O)[C@H]3O)ccc12` has a Km of < 5 µM (ABCC3; transporter uptake, substrate; Sf9; pH 7, cell membranes).
For `[Cu+2].c1cc2nc(c1)CNCc1cccc(n1)CNC2`, “peak potential separation” read 99 mV (Cu(II)/Cu(I) redox couple; cyclic voltammetry; DMF; 0.1 M TBAP, 100 mV/s scan).
`O=C(Nc1cnccc1-c1ccc([18F])nc1)c1ccnc(NC(=O)C2CC2)c1` has an SUV of 0.26 ± 0.12 (GSK-3β imaging tracer; FVB/NJ mice, both sexes, brain; intravenous, 4 min, early frames, no P-gp inhibitor).
Under “anodic peak potential”, `Ic1cc2nc(c1)CNCc1cc(I)cc(n1)CNC2.[Cu+2]` is recorded as -636 mV (Cu(II)/Cu(I) redox couple; cyclic voltammetry; DMF; added: TBAP; baseline: Fc/Fc+).
`Cc1cc(/C=C/C#N)cc(C)c1Oc1nc(NC2CCN(Cc3ccc(S(C)(=O)=O)cc3)CC2)nc2ncccc12` gave an inhibition of 94.2% (KCNH2; hERG current, manual patch clamp; CHO stably expressing hERG; 30 µM).
With `Cc1c(Cc2cccc(OC(C)(C)C(=O)O)c2)c2ccc(C(=O)N[C@@H](C)c3ccc(F)c(C(C)(C)C)c3)cc2n1CC(C)C` the IC50 was 1.33 nM (PPARG; ligand displacement, TR-FRET).
`Clc1cc2nc(c1)CNCc1cc(Cl)cc(n1)CNC2.[Cu+2]`: “peak potential separation” 102 mV (Cu(II)/Cu(I) redox couple; cyclic voltammetry; DMF; 0.1 M TBAP, 100 mV/s scan).
`O=C(Nc1cnccc1-c1ccc([18F])cc1)c1ccnc(NC(=O)C2CC2)c1` gave an SUV of 0.77 ± 0.19 (GSK-3β imaging tracer; FVB/NJ mice, both sexes, brain; intravenous, 3 min, early frames, no P-gp inhibitor).
Under “log K1-11 stability constant”, `O=C(O)CN1CCN(Cc2cccc(C(=O)O)n2)CCN(CP(=O)(O)O)CC1` is recorded as 11.3 (Y3+; UV-vis spectrophotometric titration; [M(L)(OH)]2- complex).
